# Assay results collected from several papers.
# Compare with care: the assays were run in different laboratories. ± gives the spread as reported.
SMILES,assay,system,setting,scale,measurement,value
CCCCCCCC(=O)OC[C@H](NC(=O)[C@H](CO)NC(=O)CN)C(=O)N[C@@H](Cc1ccccc1)C(=O)N[C@@H](CC(C)C)C(=O)N[C@@H](CO)C(=O)N1CCC[C@H]1C(=O)N[C@@H](CCC(=O)O)C(=O)N[C@@H](Cc1cnc[nH]1)C(=O)N[C@@H](CCC(N)=O)C(=O)N[C@@H](CCCNC(=N)N)C(=O)N[C@H](C(=O)N[C@@H](CCC(N)=O)C(=O)N[C@@H](CCC(N)=O)C(=O)N[C@@H](CCCNC(=N)N)C(=O)N[C@@H](CCCCN)C(=O)N[C@@H](CCC(=O)O)C(=O)N[C@@H](CO)C(=O)N[C@@H](CCCCN)C(=O)N[C@@H](CCCCN)C(=O)N1CCC[C@H]1C(=O)N1CCC[C@H]1C(=O)N[C@@H](C)C(=O)N[C@@H](CCCCN)C(=O)N[C@@H](CC(C)C)C(=O)N[C@@H](CCC(N)=O)C(=O)N1CCC[C@H]1C(=O)N[C@@H](CCCNC(=N)N)C(=O)O)C(C)C,,"human, both sexes, plasma","intravenous infusion, 3 µg/kg/h, 65 min infusion",,clearance,5.73 ± 0.91 mL/min/kg
[11CH3]n1c(=O)n(CCCO)c(=O)c2c1nc(Oc1cccc(OC(F)(F)F)c1)n2Cc1ccc(Cl)cc1,ex vivo biodistribution,"Sprague Dawley rat, lung",5 min post injection,,tracer uptake,1.65 ± 0.44 %ID/g
CN(C)C(CNC(=O)Nc1cc(C(F)(F)F)ccc1N1CCOCC1)c1ccncc1 (centres unmarked),,"mouse, serum","intraperitoneal, 360 mg/kg single dose",,serum osmolarity,365 mmol/L
CN[C@](C)(C[18F])C(=O)O,,"SCID mouse A549 xenograft, bone",60 min post injection,,tissue uptake,1.4 ± 0.7 %ID/g
CC(C)N1CCCCC1C(=O)NC(Cc1ccc(-c2ccccc2)cc1)B(O)O (centres unmarked),,"Pf3D7 0087/N9, NODscidIL2Rγnull mice infected with P. falciparum","oral, dose not given",,tolerability,not toxic
CCc1c2c(nc3ccc(OC4OC(C(=O)O)C(O)C(O)C4O)cc13)-c1cc3c(c(=O)n1C2)COC(=O)C3(O)CC (centres unmarked),,"human patients, plasma","intravenous, 75 mg/m^2 of parent drug",,AUC(0-inf),583 ng·h/mL
CC(=CCC(O)C(C)=Cc1csc(C)n1)CC=CC(C)C(O)C(C)C(=O)C(C)(C)C(O)CC(=O)O (centres unmarked),,"human, plasma","intravenous infusion, 20.0 mg/m2 KOS-1584, 3 h infusion, cycle 1",baseline: metabolite over KOS-1584,AUC ratio,9.65 ± 3.97%
N=C(N)NCc1ccc(C(=O)NCCCC[C@H](NC(=O)N[C@@H](CCC(=O)O)C(=O)O)C(=O)O)cc1[131I],,"SCID mouse, PC-3 xenografts, blood",14 h,,tissue uptake,0.03 ± 0.01 %ID/g
C=C(C)C12OC3(c4ccccc4)OC1C1C(O)C(Br)(CO)C(O)C4(O)C(=O)C(C)=CC4C1(O3)C(C)C2OC(=O)c1ccccc1 (centres unmarked),,"ICR mice, plasma","oral, 1 mg/kg",,oral bioavailability,64.1%
COc1cc(C(=O)NCCOCCOCCOCCNC(=O)c2ccc([18F])nc2)ccc1NC(=O)C1NC(CC(C)(C)C)C(C#N)(c2ccc(Cl)cc2F)C1c1cccc(Cl)c1F (centres unmarked),,"athymic male mice, SJSA-1 xenograft",1 h,baseline: tumour over blood,tumour-to-tissue ratio,1.22 ± 0.02
CSCC[C@H](NC(=O)CNC(=O)[C@H](CC(=O)O)NC(=O)[C@@H](NC(=O)[C@@H](NC(=O)[C@@H](NC(=O)CNC(=O)[C@H](CCC(N)=O)NC(=O)[C@H](CCSC)NC(=O)[C@H](CC(=O)O)NC(=O)[C@H](C)NC(=O)[C@H](C)NC(=O)[C@@H](NC(=O)[C@H](CO)NC(=O)[C@@H](N)CC(C)C)[C@@H](C)O)C(C)C)C(C)C)[C@@H](C)O)C(=O)N[C@@H](C)C(=O)N[C@@H](CO)C(=O)NCC(=O)N[C@@H](CC(C)C)C(=O)N[C@@H](CC(=O)O)C(=O)N[C@@H](CCCCN)C(=O)N[C@@H](CC(=O)O)C(=O)N[C@@H](Cc1ccc(O)cc1)C(=O)N[C@@H](CC(C)C)C(=O)N[C@@H](CCCCN)C(=O)N1CCC[C@H]1C(=O)N[C@@H](CC(=O)O)C(=O)N[C@@H](CC(=O)O)C(=O)O,,"human, serum","intravenous, 2.5 mg/kg, patients, infusion",,half-life,6.12 min
CC[C@H](C)[C@H](NC(=O)[C@H](CCCCN)NC(=O)CNC(=O)[C@H](CC(C)C)NC(=O)[C@@H](NC(=O)[C@H](C)NC(=O)[C@H](CCCCN)NC(=O)CNC(=O)[C@H](C)NC(=O)CNC(=O)[C@H](CCCCN)NC(=O)[C@H](CCSC)NC(=O)[C@H](CCCCN)NC(=O)[C@@H](NC(=O)[C@H](Cc1c[nH]c2ccccc12)NC(=O)[C@H](CC(C)C)NC(=O)[C@H](CCC(N)=O)NC(=O)[C@H](CCCCN)NC(=O)[C@H](CC(C)C)NC(=O)[C@@H](N)CC(C)C)[C@@H](C)O)C(C)C)C(=O)N[C@@H](CCCCN)C(=O)NCC(=O)N[C@@H](CC(C)C)C(=O)N[C@@H](CC(C)C)C(=O)O,acrylamide quenching,"PC:cholesterol vesicles, 250 µM lipid","2 µM, added: acrylamide",,Stern-Volmer constant,1.72 ± 0.16 M⁻¹
CCOc1cncc(-c2ccc(NC(=O)C3(c4ccnc(NS(=O)(=O)C5CC5)n4)CCOCC3)nc2)n1,,"NOD-SCID mice, Jurkat xenograft","subcutaneous, dose not given, alternate day dosing",,toxicity,not toxic
C=Cc1cc(O)cc2nc(-c3ccc(O)c([76Br])c3)oc12,,"female C57BL/6 mouse, blood","1 h, high dose",,tissue uptake,0.36 ± 0.14 %ID/g
CC(C)C[C@H](NC(=O)[C@H](CCCCN)NC(=O)[C@H](CCC(=O)O)NC(=O)[C@H](C)NC(=O)[C@@H](NC(=O)[C@H](CCCCN)NC(=O)[C@H](CC(=O)O)NC(=O)[C@H](Cc1ccc(O)cc1)NC(=O)[C@H](Cc1ccccc1)NC(=O)[C@H](C)NC(=O)[C@H](CCCCN)NC(=O)[C@H](CC(C)C)NC(=O)[C@H](Cc1c[nH]c2ccccc12)NC(=O)[C@@H](N)CC(=O)O)C(C)C)C(=O)N[C@@H](CCCCN)C(=O)N[C@@H](CCC(=O)O)C(=O)N[C@@H](C)C(=O)N[C@@H](Cc1ccccc1)C(=O)N1CCC[C@H]1C(=O)N[C@@H](CC(=O)O)C(=O)N[C@@H](Cc1c[nH]c2ccccc12)C(=O)N[C@@H](C)C(=O)N[C@@H](CCCCN)C(=O)N[C@@H](C)C(=O)N[C@@H](C)C(=O)N[C@@H](Cc1ccc(O)cc1)C(=O)N[C@@H](CC(=O)O)C(=O)N[C@@H](CCCCN)C(=O)N[C@@H](C)C(=O)N[C@@H](C)C(=O)N[C@@H](CCC(=O)O)C(=O)N[C@@H](CCCCN)C(=O)N[C@@H](C)C(=O)N[C@@H](CCCCN)C(=O)N[C@@H](CCC(=O)O)C(=O)N[C@@H](C)C(=O)N[C@@H](C)C(=O)O,,"cynomolgus monkey female, plasma","intravenous infusion, 8 mg/kg every other day, day 27",,Cmax,159 µg/mL
CC[C@H](C)[C@H](NC(=O)[C@@H](Cc1ccccc1)NC)C(=O)N[C@@H](CO)C(=O)N[C@H](CCC(N)=O)C(=O)N[C@@H](C(=O)N[C@H](C(=O)N[C@@H](CO)C(=O)N[C@H]1C(=O)N[C@@H](C)C(=O)N[C@@H](C2CCCCC2)C(=O)N[C@@H]([C@@H](C)CC)C(=O)O[C@H]1C)[C@@H](C)CC)[C@@H](C)CC,,acetonitrile-water,TFA salt,,acetonitrile share for dissolution,~40%
C[C@H](NC(=O)[C@H](CCC(=O)O)NC(=O)[C@H](Cc1c[nH]cn1)NC(=O)[C@H](Cc1c[nH]cn1)NC(=O)CN1CCN(CC(=O)O)CCN(CC(=O)O)CCN(CC(=O)O)CC1)C(=O)N[C@@H](Cc1ccc(O)cc1)C(=O)NCC(=O)N[C@@H](Cc1c[nH]c2ccccc12)C(=O)N[C@@H](CC[S+](C)[O-])C(=O)N[C@@H](CC(=O)O)C(=O)N[C@@H](Cc1ccccc1)C(N)=O (some centres unmarked),,"MF1 nude mouse, male, AR-42J xenograft","intravenous, 0.2 µg, 4 h, 111In-labelled",baseline: tumour over kidney,tumour-to-kidney ratio,0.1
CC(C)[C@H](NC(=O)CNC(=O)[C@H](CCC(N)=O)NC(=O)[C@H](C)N)C(=O)O,mild intensity,human,"20 mg/kg, 3 days, thrice daily dosing",,subjects with adverse events,50%
CC(C)C[C@H](NC(=O)CNC(=O)[C@H](C)NC(=O)[C@H](CCCNC(=N)N)NC(=O)[C@H](Cc1c[nH]cn1)NC(=O)CNC(=O)CN)C(=O)N[C@@H](CCC(N)=O)C(=O)N[C@@H](Cc1ccccc1)C(=O)N1CCC[C@H]1C(=O)N[C@H](C(=O)NCC(=O)N[C@@H](CCCNC(=N)N)C(=O)N[C@H](C(=O)N[C@@H](Cc1c[nH]cn1)C(=O)N[C@@H](CCCNC(=N)N)C(=O)N[C@@H](CC(C)C)C(=O)N[C@@H](CC(C)C)C(=O)N[C@@H](CCCNC(=N)N)C(=O)N[C@@H](CCCCN)C(N)=O)C(C)C)C(C)C,haemolysis,human red blood cells,1 h,,HD10,64 µM
C[C@@H](O)[C@H](NC(=O)[C@H](CCCCN)NC(=O)COCCN)C(=O)N[C@@H](CCCNC(=N)N)C(=O)NC(C)(C)C(=O)N[C@@H](CCCNC(=N)N)C(=O)NC(C)(C)C(=O)N[C@H](C(=O)N[C@@H](CO)C(=O)N[C@@H](Cc1c[nH]cn1)C(=O)N[C@@H](Cc1ccc(O)cc1)C(=O)NCC(=O)O)[C@@H](C)O,,"C57BL/6 mouse, blood","intravenous, 50 mg/kg, 10 h",,granulocytes,7 to 13%
CC[C@H](C)C(=O)N1CCC(NC(=O)Nc2ccc(OC(F)(F)F)c(F)c2)CC1,,healthy volunteers,"oral, 16 mg single dose",,subjects with UTI TEAE,0%
CC(CCC(=O)NCC(=O)O)C1CCC2C3C(O)CC4CC(OC5OC(C(=O)O)C(O)C(O)C5O)CCC4(C)C3CCC12C (centres unmarked),measured: glucuronide to parent ratio,"human, plasma","dose not given, sex-adjusted",baseline: C/C over T/T,ratio of metabolic ratios,6.83
CCCCCCCCCCCCC(=O)O.O=C1CCCC2C3CCCN4CCCC(CN12)C34 (centres unmarked),electrical conductivity,water,"298.15 K, critical micelle concentration",,standard Gibbs energy of micellization,-31.1 kJ/mol

# Some of these lines once more:
SMILES,assay,system,setting,scale,measurement,value
N=C(N)NCc1ccc(C(=O)NCCCC[C@H](NC(=O)N[C@@H](CCC(=O)O)C(=O)O)C(=O)O)cc1[131I],,"SCID mouse, PC-3 xenografts, blood",14 h,,tissue uptake,0.03 ± 0.01 %ID/g
CCCCCCCCCCCCC(=O)O.O=C1CCCC2C3CCCN4CCCC(CN12)C34 (centres unmarked),electrical conductivity,water,"298.15 K, critical micelle concentration",,standard Gibbs energy of micellization,-31.1 kJ/mol
